Measurements collected from several papers.
Each numbered part is a random draw from the data of one study; scales do not carry over between parts. Substitutions count along the parent as printed.

Block 1
Target: Histone acetyltransferase KAT6A, winged helix 1, GST fusion (KAT6A, Homo sapiens, UniProt Q92794, residues 1-85)
Technique: protein binding microarray
Molecule type: double-stranded DNA, one strand shown
Medium: in vitro
Concentration: not given
Setting: 8-mer, flanks averaged, mean of 2 arrays, mostly near background
Reference: not given
Direction: higher = stronger binding
Residues (chain): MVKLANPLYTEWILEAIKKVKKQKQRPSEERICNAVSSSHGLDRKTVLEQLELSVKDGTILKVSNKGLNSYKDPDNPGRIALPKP
| Sequence | E-score |
| --- | --- |
| CACTGTGA | -0.109 |
| ACTCTGAA | -0.143 |
| ACCGAGGA | -0.0997 |
| ACCAATCT | -0.212 |
| ACACTTGA | -0.208 |
| CGGATAAC | 0.122 |
| CCCTCCGA | -0.00445 |
| GTAACTAC | 0.064 |
| AGAGTCGC | -0.0424 |
| AAGCGCTT | 0.314 |
| ATAACGGC | 0.368 |
| GTTGCCAA | -0.176 |
| CATCGGGC | 0.204 |
| CAGTTGAA | -0.227 |
| GCATATAC | 0.138 |
| ATACGTCG | 0.15 |
| ATGCGTAG | 0.192 |
| AAGCTCGT | -0.242 |

Block 2
Target: ABI1, truncated, D143A, DHFR fusion (Arabidopsis thaliana)
Technique: DHFR PCA, deep sequencing
Medium: yeast
Setting: methotrexate growth selection, single substitutions
Together with: (+)-ABA 0.39 µM
Reference: wild-type fitted maximum
Direction: higher = stronger binding
Starting sequence: PYL1, truncated, DHFR fusion (Arabidopsis thaliana); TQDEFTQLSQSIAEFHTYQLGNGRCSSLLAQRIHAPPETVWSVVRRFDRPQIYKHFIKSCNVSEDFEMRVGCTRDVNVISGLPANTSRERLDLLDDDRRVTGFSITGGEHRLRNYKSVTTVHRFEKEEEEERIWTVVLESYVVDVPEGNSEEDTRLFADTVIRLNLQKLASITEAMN
| Change | relative binding score |
| --- | --- |
| L29A | -3.02% |
| T39Y | 11.8% |
| S9L | 34.8% |
| R123P | 40.4% |
| I105F | -12.8% |
| E64R | 37% |
| T160G | -8.11% |
| D159S | -6.81% |
| E131P | 74.3% |
| C72K | 3.54% |
| V143H | -2.95% |
| W134N | 7.96% |
| V76N | -7.79% |
| L138K | -8.17% |
| T135Q | 2.83% |
| V142L | -16% |
| R88D | -0.803% |
| E89G | 2.69% |
| F47E | 0.897% |
| E147P | 46.8% |
| Q19F | 7.5% |
| P37R | 1.55% |
| W41K | -12.6% |

Block 3
Target: OGT, full length, His-tagged (human)
Technique: phage display, sequencing
Medium: in vitro
Concentration: 1 µg OGT
Setting: single substitutions, 15-mer displayed peptide, unchanged parent 6.14
Reference: input library
Direction: higher = stronger binding
Starting sequence: peptide; VAYPNSYMPKYQIST; partner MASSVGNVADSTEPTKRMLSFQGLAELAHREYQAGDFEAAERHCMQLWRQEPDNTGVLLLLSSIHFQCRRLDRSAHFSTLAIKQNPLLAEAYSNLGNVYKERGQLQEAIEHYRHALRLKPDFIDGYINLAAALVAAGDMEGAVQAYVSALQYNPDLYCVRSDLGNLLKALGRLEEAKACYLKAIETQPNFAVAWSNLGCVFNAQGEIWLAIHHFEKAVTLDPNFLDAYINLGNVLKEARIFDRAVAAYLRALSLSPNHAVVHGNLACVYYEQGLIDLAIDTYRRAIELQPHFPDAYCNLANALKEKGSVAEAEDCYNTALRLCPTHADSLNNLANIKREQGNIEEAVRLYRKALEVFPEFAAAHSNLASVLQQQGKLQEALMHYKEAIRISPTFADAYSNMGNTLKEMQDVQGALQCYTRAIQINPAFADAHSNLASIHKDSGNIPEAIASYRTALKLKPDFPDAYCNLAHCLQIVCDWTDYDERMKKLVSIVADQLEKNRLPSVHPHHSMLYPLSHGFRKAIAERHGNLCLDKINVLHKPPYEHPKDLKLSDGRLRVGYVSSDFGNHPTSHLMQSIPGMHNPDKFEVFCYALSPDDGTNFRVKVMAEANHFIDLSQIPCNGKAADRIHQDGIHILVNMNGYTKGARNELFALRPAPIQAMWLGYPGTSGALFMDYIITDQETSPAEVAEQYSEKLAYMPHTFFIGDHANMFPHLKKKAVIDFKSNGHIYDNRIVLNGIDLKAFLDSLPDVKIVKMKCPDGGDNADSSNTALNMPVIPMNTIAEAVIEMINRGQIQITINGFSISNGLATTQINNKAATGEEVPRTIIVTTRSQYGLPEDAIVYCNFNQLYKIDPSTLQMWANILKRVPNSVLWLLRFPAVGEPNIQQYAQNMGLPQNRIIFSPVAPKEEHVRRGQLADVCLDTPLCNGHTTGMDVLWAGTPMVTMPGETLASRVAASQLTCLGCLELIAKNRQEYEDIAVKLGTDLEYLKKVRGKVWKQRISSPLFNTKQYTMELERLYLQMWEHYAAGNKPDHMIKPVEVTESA
| Change | fold enrichment [fold] |
| --- | --- |
| VAYPTSYMPKYQIST [N5T] | 8.16 |
| VAYPNWYMPKYQIST [S6W] | 3.08 |
| VAYPNSYVPKYQIST [M8V] | 1.42 |
| VAYPESYMPKYQIST [N5E] | 6.22 |
| VAYPNSYMPAYQIST [K10A] | 2.23 |
| VAYPNSYMPKYQIRT [S14R] | 8.49 |
| LAYPNSYMPKYQIST [V1L] | 6.48 |
| SAYPNSYMPKYQIST [V1S] | 7.9 |
| VYYPNSYMPKYQIST [A2Y] | 7.59 |
| VAYPNSYMPKYQYST [I13Y] | 0.795 |
| VAYPNSYMPKYQIVT [S14V] | 12.3 |
| VAYPNSYMPKAQIST [Y11A] | 0.723 |
| VAYPNSYMPKYDIST [Q12D] | 0.687 |
| WAYPNSYMPKYQIST [V1W] | 7.09 |

Block 4
Target: RING finger protein unkempt homolog, zinc fingers 1-6, GST-SBP tag (UNK, Homo sapiens, UniProt Q9C0B0, residues 30-357)
Chain of UniProt Q9C0B0 (30-357, looked up): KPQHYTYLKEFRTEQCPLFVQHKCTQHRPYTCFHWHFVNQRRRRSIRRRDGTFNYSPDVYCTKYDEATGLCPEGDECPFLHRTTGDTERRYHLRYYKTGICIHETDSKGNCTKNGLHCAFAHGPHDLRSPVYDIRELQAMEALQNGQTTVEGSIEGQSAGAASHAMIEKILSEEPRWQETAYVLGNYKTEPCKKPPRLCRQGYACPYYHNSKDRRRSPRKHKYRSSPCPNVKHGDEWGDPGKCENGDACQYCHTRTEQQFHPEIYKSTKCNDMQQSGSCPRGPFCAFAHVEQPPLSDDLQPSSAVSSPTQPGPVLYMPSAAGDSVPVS
Technique: RNA Bind-n-Seq
Molecule type: RNA
Medium: in vitro
Concentration: not given
Setting: RNA with constant flanks, ends assumed
Reference: input RNA pool
Direction: higher = stronger binding
Constant ends, left off below: GGGAGUUCUACAGUCCGACGAUC … CAACAGAGGAUUGAGCAUCA
| Sequence | bound/input enrichment [ratio] |
| --- | --- |
| CAACUUGGGGAAGAUAUCCGACGAAUUCCCAUUCAUAAUGAAGACAUUACUUACGAUGAAUCCGUGCUAAUGAUGCAGCGAGUAUUCAGAGGAAAGCUUCUGAGUAAUGAUGAAGUUACA | 0.104 |
| AGAAAAAUCAAACACUCCUUUAUAAUCUUUUUGACAUUUCUCAAUCUGCACAGACACCAGCCGCAGUUAUUGGACUUACAUGUAGAUUGGAUAUUUUGGAACUCUUAGAAAAGAGAGUGA | 0.517 |
| ACCUUGUUUAAUGCAGAAAGAGACCUUGAAAGGUCAGUCAUGAAAUCUGGUUUGAUUAUUAACCGCUAUCUUUUAGGAAGAAGCUUUUUCCCUAUGUACGAUGUCAUACUGCAGACUUAA | 1.17 |
| GAGAAUGUUAUUUAAAGUUGUAUUAUAAUUGCAACCUCCACUAAUUAUUCAGUACUGCCGCAGCAAAGUAUUAUUUGUAAGAAUUUGGUUAUUUUUAUACUUAUAUCCACUCUAAGUCUG | 0.234 |
| UCAACAGACAACAUCAAAUACCAGCCUAAAGGGGGGCAGGUACAAAUUGUUACCAAGAAAACCGACCUAAGCCAUGUGACAUCCAAAUGUGGCUCUCUGAAGAACAUCCGCCACAGGCCA | 0.113 |
| UACUCGCCCACCUCUCCCAGCUACUCGCCCACCUCUCCCAGCUACUCACCCACUUCCCCCCGCUACUCGCCCACUUCCCCUAGCUACUCGCCAACGUCUCCCAGCUACUCACCGACAUCU | 0.867 |
| CAACAAUACUCAGGGAGGAGACUCCCAUAAUGGAAACUUUGUCAUUCCCCAGAUACAAUGCCGCUGAGCUUGUGGUUCAUAUUCGCAAUAAAUUAUUAACAGGAGCAGAUGGCAAAAACC | 0.275 |
| ACCCUGGAAGAAGAAACAGUGAUGCUUGCAAUGACUCCAGAUGAUUUACAGGAGAAAGAAGCCGCUUAUUGUUCCACAUAUACACACUGUGAGAUUCAUCCCUCAAUGAUCCUUGGUGUC | 0.297 |
| GGACUGCAGAACGGCUCAGACUUGCAGUUCAUCGAGAUGCAGAGAGAUGCCAAUAGACAAAUCCGUGAAUACAAAUUCAAGCUUUCGAAAGCAGAACAAGACAUAGCUACCUUGGAACAA | 0.211 |
| GAAGUUCCCCAUUGUCACUGAGAACCACCAAAUUUGACUUUCACAUUUGGUCUCAGAAUUCCGGUUCCUGCCCUGUUGUUUUUCUUUCUUUUUCUUUUUUUUUUUUCUCCCCUCCCCUUU | 1.86 |
| GUACGUCAUUCAAGUGUUUAAUGGUAAAGGUGUAUUAUAAGGAUAGUGCUAGAAGCUUUCACCGACUGUAAAGAGUUCCAUGGAGUAUUAAACCCAUAGUUGGAAAGGUCUGAGGGCCCA | 0.375 |

Block 5
Target: CCNE2, cyclin fold, Cln2 fusion (human)
Technique: yeast growth competition, sequencing
Medium: yeast
Setting: strong parent motif
Reference: not given
Direction: higher = stronger binding
Starting sequence: E2F1 docking peptide (human); PPVKRRLDLETDH; partner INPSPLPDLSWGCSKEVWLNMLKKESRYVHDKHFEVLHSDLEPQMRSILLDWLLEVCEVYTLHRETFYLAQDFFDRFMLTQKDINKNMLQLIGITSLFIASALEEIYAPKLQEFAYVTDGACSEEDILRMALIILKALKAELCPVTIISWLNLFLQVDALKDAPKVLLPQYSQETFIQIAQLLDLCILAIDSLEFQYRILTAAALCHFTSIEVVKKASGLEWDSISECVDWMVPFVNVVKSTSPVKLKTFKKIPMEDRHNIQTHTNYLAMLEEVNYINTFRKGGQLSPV
| Change | normalised enrichment score |
| --- | --- |
| PMVKRRLDLETDH [P2M] | 0.295 |
| PPVKRRLDLMTDH [E10M] | 1.16 |
| PPVKRCLDLETDH [R6C] | -0.0263 |
| PPVERRLDLETDH [K4E] | -0.0844 |
| PPVKRRLWLETDH [D8W] | 3.5 |
| PPVKRRPDLETDH [L7P] | -0.171 |
| PPVKDRLDLETDH [R5D] | 0.631 |
| PPVKQRLDLETDH [R5Q] | 0.114 |
| PPVKRHLDLETDH [R6H] | 0.47 |
| PPVKRRLDLHTDH [E10H] | 2.53 |
| VPVKRRLDLETDH [P1V] | 0.708 |
| PPVKRRLDLLTDH [E10L] | 1.08 |
| WPVKRRLDLETDH [P1W] | 1.79 |
| PPVKRRLMLETDH [D8M] | 2.06 |
| PPVMRRLDLETDH [K4M] | 1.67 |
| PPVKRRLQLETDH [D8Q] | 1.53 |
| PPIKRRLDLETDH [V3I] | 0.126 |
| SPVKRRLDLETDH [P1S] | 0.647 |
| PPVKRRLDLETAH [D12A] | 1.7 |
| PPVKRRLKLETDH [D8K] | 1.49 |
| PPVKRRYDLETDH [L7Y] | 0.388 |
| PPVKRRLDFETDH [L9F] | 5.76 |
| PPVKRRLDLECDH [T11C] | 1.42 |
| PPVKRRLDLETDC [H13C] | 1.34 |
| PPVKRRLDLEWDH [T11W] | 2.92 |

For quick reference, copied from above (block 2):
| Change | relative binding score |
| --- | --- |
| V143H | -2.95% |
| W134N | 7.96% |
| V76N | -7.79% |
| L138K | -8.17% |
| T135Q | 2.83% |
| V142L | -16% |
| R88D | -0.803% |
| E89G | 2.69% |
